Results collected from several papers.
Numbered parts are unrelated; each lists some results of a single study.

Set 1 — technique: protein binding microarray; form: double-stranded DNA, one strand shown; medium: in vitro; tested at: not given; reference: not given; reading: higher = stronger binding; measurement: E-score
Target: Histone acetyltransferase KAT6A, winged helix 2, GST fusion (KAT6A, Homo sapiens, UniProt Q92794, residues 85-181)
Setting: 8-mer, flanks averaged, mean of 2 arrays, mostly near background
Target sequence (chain): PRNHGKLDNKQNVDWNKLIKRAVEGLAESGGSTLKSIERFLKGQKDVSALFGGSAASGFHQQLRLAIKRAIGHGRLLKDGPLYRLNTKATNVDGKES
TATATCAA: -0.00091
CAGCAGCG: 0.133
ATGCGAGC: -0.108
AACAAGGG: 0.00857
CGGCCCCC: -0.00095

Set 2 — technique: universal PBM; form: double-stranded DNA, one strand shown; medium: in vitro; tested at: 600 nM; reading: higher = stronger binding; measurement: E-score
Target: Sal-like protein 4, full length isoform A (SALL4, Homo sapiens, UniProt Q9UJQ4, residues 1-1053)
UniProt Q9UJQ4, sequence (whole entry, looked up): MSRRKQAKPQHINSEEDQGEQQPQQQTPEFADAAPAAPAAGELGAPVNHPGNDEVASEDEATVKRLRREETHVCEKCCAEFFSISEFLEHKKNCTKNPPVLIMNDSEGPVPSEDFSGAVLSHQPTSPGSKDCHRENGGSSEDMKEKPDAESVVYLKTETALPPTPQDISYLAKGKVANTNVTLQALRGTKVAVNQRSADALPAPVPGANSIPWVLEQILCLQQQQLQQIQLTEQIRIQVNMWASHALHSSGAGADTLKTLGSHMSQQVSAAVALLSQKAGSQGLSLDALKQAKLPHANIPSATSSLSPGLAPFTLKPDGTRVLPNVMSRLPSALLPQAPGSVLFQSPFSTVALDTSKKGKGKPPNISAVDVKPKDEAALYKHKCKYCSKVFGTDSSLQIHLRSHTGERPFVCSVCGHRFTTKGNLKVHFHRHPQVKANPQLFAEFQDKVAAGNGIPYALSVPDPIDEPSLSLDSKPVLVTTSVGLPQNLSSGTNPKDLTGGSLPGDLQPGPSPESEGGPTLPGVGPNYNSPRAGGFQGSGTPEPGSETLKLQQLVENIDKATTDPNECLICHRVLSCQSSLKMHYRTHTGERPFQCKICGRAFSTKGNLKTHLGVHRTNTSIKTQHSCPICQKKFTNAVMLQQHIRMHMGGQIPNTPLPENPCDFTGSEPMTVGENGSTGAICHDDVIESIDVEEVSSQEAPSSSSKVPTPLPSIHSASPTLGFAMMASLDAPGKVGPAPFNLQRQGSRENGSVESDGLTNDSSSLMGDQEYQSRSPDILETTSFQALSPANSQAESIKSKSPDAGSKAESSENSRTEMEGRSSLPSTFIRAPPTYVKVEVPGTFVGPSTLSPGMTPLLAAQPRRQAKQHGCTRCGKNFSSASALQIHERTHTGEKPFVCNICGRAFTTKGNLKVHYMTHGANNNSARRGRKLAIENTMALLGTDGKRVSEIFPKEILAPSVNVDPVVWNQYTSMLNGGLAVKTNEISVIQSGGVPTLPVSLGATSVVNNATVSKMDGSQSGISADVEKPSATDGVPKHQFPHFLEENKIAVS
Setting: 8-mer, flanks averaged, mean of replicates
GCCAGCGC: -0.309
ACTGTTTA: 0.265
GAAAGGTA: 0.127

Set 3 — technique: protein-binding microarray; form: double-stranded DNA, one strand shown; medium: in vitro; tested at: 2540 nM top; setting: 60-bp whole probe; together with: salmon DNA 0.4 mg/ml; reference: random background probes; reading: higher = stronger binding; measurement: fitted relative affinity
Target: Interferon regulatory factor 3, full length, phosphomimetic (IRF3, Homo sapiens, UniProt Q14653, residues 1-427, S386D/S396D/S398D/S402D/T404D/S405D)
UniProt Q14653, sequence (whole entry, unmodified, looked up): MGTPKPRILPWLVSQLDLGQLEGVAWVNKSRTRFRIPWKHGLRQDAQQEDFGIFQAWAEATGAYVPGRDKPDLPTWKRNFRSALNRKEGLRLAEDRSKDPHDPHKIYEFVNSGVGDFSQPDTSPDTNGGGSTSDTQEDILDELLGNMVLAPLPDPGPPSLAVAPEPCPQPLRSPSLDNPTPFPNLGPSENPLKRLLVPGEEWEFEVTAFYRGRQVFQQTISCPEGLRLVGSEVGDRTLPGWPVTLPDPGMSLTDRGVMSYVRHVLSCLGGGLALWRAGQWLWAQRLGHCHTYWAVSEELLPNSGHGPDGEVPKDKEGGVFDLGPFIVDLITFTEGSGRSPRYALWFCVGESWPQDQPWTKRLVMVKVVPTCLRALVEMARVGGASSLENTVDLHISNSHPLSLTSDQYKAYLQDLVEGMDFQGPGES
GCCTAGCACTCACATTACAGCTATTTTACTGTGCTAGTCTTGATTCGCTTGACGCTGCTG: 0.645 z-score
GCCTAGCACTTAGATATCAATTTCGATTAGTGCTAGGTCTTGATTCGCTTGACGCTGCTG: 2.19 z-score
GCCTAGCACTTAGGTTTCTTTCTCCTTTAGTGCTAGGTCTTGATTCGCTTGACGCTGCTG: 5.04 z-score

Other studies, line by line
PhoQ, residues 284 288 289 292 302 303 SLSLLA — fold induction (PhoP, residues 12 14 15 18 19 LWHVM (Escherichia coli, UniProt P23836); Sort-seq, refers to: YFP reporter; E. coli; PhoQ-PhoP variant library, together with: 10 µM Mg2+; reference: high Mg2+ state, higher = stronger signaling): 14.7

For quick reference, copied from above (set 1):
CGGCCCCC: -0.00095
